Published values from different studies.
Lines come from different studies, so protocols differ. Numbers after ± are the reported error. In brackets after ≈: the same amount, converted by molar mass.
Organism: Pseudomonas aeruginosa

| Substance | test | test system | setting | measurement | result |
| --- | --- | --- | --- | --- | --- |
| CC[C@H]1OC(=O)[C@H](C)[C@@H](O[C@H]2C[C@@](C)(OC)[C@@H](O)[C@H](C)O2)[C@H](C)[C@@H](O[C@@H]2O[C@H](C)C[C@H](N(C)C)[C@H]2O)[C@](C)(OC)C[C@@H](C)C(=O)[C@H](C)[C@@H](O)[C@]1(C)O | checkerboard broth microdilution | clinical isolate 17-99 | added: magainin II | FIC index | 1.5 |
| ILPWKWPWWPWRR | biofilm formation | peptide, PAO1 | 24 h, 37 °C | MBIC | > 32 µg/mL |
| CC(C)(O/N=C(\C(=O)N[C@@H]1C(=O)N2C(C(=O)[O-])=C(C[n+]3ccccc3)CS[C@H]12)c1csc(N)n1)C(=O)O | checkerboard broth microdilution | clinical isolate 17-99 | added: magainin II | FIC index | 0.25 |
| CC[C@H]1OC(=O)[C@H](C)[C@@H](O[C@H]2C[C@@](C)(OC)[C@@H](O)[C@H](C)O2)[C@H](C)[C@@H](O[C@@H]2O[C@H](C)C[C@H](N(C)C)[C@H]2O)[C@](C)(O)C[C@@H](C)CN(C)[C@H](C)[C@@H](O)[C@]1(C)O |  | hospitalized pneumonia patients, clinical isolates | Fine score 70 or more | susceptible isolates | 0% |
| O=C(Nc1cccc(C(F)(F)F)c1)c1cc(Cl)ccc1O | microbial growth, broth dilution | ATCC27853 |  | MIC | > 64 µg/mL |
| colistin | checkerboard titration | 17-99 | added: ranalexin | FIC index | 0.25 |
| CC(=O)N[C@@H](C)C(=O)N[C@@H](CCC(N)=O)C(=O)N[C@@H](CCCCN)C(=O)N[C@@H](CC(C)C)C(=O)N[C@@H](CC(C)C)C(=O)N[C@@H](CCCCN)C(=O)N[C@@H](CCCCN)C(=O)N[C@@H](Cc1ccccc1)C(=O)N[C@@H](CO)C(=O)N[C@@H](CC(C)C)C(=O)N[C@@H](CC(C)C)C(=O)N[C@@H](CCCCN)C(=O)N1CCC[C@H]1C(=O)N[C@@H](Cc1c[nH]c2ccccc12)C(=O)N[C@@H](C)C(=O)O | Fe2+ uptake | PA14, iron-depleted | 10 µM, 45 min pretreatment, 35 °C, added: FeSO4 100 µM, 15 min | inhibition | 47% |
| CC[C@H](C)[C@H](NC(=O)CNC(=O)[C@H](CCC(=O)O)NC(=O)[C@H](CO)NC(=O)[C@@H](NC(=O)[C@H](CCCNC(=N)N)NC(=O)[C@H](CCCCN)NC(=O)[C@H](CCCCN)NC(=O)[C@H](C)NC(=O)[C@H](CO)NC(=O)[C@H](CC(N)=O)NC(=O)[C@H](CCC(=O)O)NC(=O)[C@H](CC(C)C)NC(=O)[C@H](CCCCN)NC(=O)[C@H](CCCCN)NC(=O)[C@H](C)NC(=O)[C@@H](NC(=O)[C@H](CCCCN)NC(=O)[C@H](CO)NC(=O)[C@H](CC(C)C)NC(=O)[C@H](Cc1c[nH]c2ccccc12)NC(=O)[C@@H](N)CO)[C@@H](C)O)[C@@H](C)CC)C(=O)N[C@@H](C)C(=O)N[C@H](C(=O)N[C@@H](C)C(=O)N[C@H](C(=O)N[C@@H](CCC(N)=O)C(=O)NCC(=O)NCC(=O)N1CCC[C@H]1C(=O)N[C@@H](CCCNC(=N)N)C(=O)O)[C@@H](C)CC)[C@@H](C)CC | broth microdilution |  | 18 h, 10 clinical isolates | MIC range | 2 to 32 µg/mL (≈ 0.599 to 9.58 µM) |
| Cc1ccc(C(C)C)cc1.Cc1ccc(C(C)C)cc1.[Cl][Ru][Cl].[Cl][Ru][Cl] | broth microdilution, agar subculture | ATCC 25619 |  | MBC | > 1000 µg/mL |
| O=C(Nc1ccccc1)c1cccc(Cl)c1 | microbial growth, broth dilution | ATCC27853 |  | MIC | > 64 µg/mL |
| CCOC(=O)N1CCN(Cn2nc(C34CC5CC(CC(C5)C3)C4)n(-c3ccccc3)c2=S)CC1 |  | IFO 3448 | 200 µg/disc, 24 h, 37 °C | inhibition zone diameter | < 10 mm |
| Polymyxin B | biofilm formation | PAO1 | 24 to 25 h, 37 °C | MBIC | 16 µg/mL |
| Cc1cc(C)n(C(N)=S)n1 | broth microdilution, agar subculture | ATCC 25619 | 24 h | MBC | > 1000 µg/mL |
| CC[C@@H](C)[C@@H](NC(=O)[C@@H](C)NC(=O)[C@@H](CCCNC(=N)N)NC(=O)[C@@H](Cc1c[nH]c2ccccc12)NC(=O)[C@@H](CCC(N)=O)NC(=O)[C@H](N)C(C)C)C(=O)N[C@H](CCCNC(=N)N)C(=O)N[C@@H](C(=O)N[C@H](CCCNC(=N)N)C(=O)N[C@@H](C(=O)N[C@@H](C(=O)N[C@H](CCCNC(=N)N)C(N)=O)[C@H](C)CC)C(C)C)C(C)C |  | PAO1, Galleria mellonella larvae | proleg injection, 20 µg per larva, 48 h post infection, 37 °C, dosed 1 h after infection | survival | 42 ± 7% |
| O=c1c(O)c(-c2ccc(O)cc2)oc2cc(O)cc(O)c12 | microbial growth | ATCC15692 PAO1 | 11.1 µM | inhibition | > 50% |
| O=C(Nc1ccc(F)cc1[N+](=O)[O-])c1cc(Cl)ccc1O | microbial growth, broth dilution | ATCC27853 |  | MIC | > 64 µg/mL |
| COc1cc(/C=C2/SC(Nc3ccc(S(N)(=O)=O)cc3)=NC2=O)ccc1O | microbial growth | ATCC10145 | 50 µg/mL, 24 h | inhibition | 27% |
| GIGKFLHSAKKFGKAFVGEIMNS-NH2 (C-amide) | bacterial growth, broth microdilution | peptide, PAO1, Mueller-Hinton broth | overnight, 37 °C | MIC50 | 10.6 ± 2.21 µg/mL |
| Cc1ccc(S(=O)(=O)Oc2cc(C(C)C)cccc2=O)cc1 | microbial growth, broth dilution | ATCC27853 |  | MIC80 | > 100 µM |
| C[C@@H](O)[C@H]1C(=O)N2C(C(=O)O)=C(S[C@@H]3CN[C@H](C(=O)N(C)C)C3)[C@H](C)[C@H]12 | checkerboard broth microdilution | clinical isolate 8-97 | added: magainin II | FIC index | 0.25 |
| CN(C)c1ccc(/C=C2/SC(Nc3ccc(S(N)(=O)=O)cc3)=NC2=O)cc1 | microbial growth | ATCC10145 | 50 µg/mL, 24 h | inhibition | 37.6% |
| CC(C)C[C@H](NC(=O)CNC(=O)[C@H](C)NC(=O)c1ccc(S[C@@H]2O[C@H](CO)[C@H](O)[C@H](O)[C@H]2O)cc1)C(=O)N[C@@H](C)C(=O)NC[C@@H]1CCN(c2cc3c(cc2F)c(=O)c(C(=O)O)cn3C2CC2)C1 | broth microdilution | PA14, P. aeruginosa supernatant in PBS | 10% supernatant, 3 h preincubation | MIC | 1.56 to 3.13 µM |
| CO/N=C(\C(=O)N[C@@H]1C(=O)N2C(C(=O)O)=C(CSc3nc(=O)c(=O)[nH]n3C)CS[C@H]12)c1csc(N)n1 | checkerboard | ATCC 27853 | added: magainin II | FIC index | 0.25 |
| CC(C)C[C@H](NC(=O)CNC(=O)[C@H](C)NC(=O)c1ccc(S(=O)(=O)NC[C@H]2O[C@@H](C)[C@@H](O)[C@@H](O)[C@@H]2O)cc1)C(=O)N[C@@H](C)C(=O)N[C@H]1CCN(c2cc3c(cc2F)c(=O)c(C(=O)O)cn3C2CC2)C1 | broth microdilution | PA14, human plasma with LB in PBS | 50% plasma, 10% LB, pre-incubation 3 h | MIC | 0.78 to 6.25 µM |
| C[C@H]1c2cccc(O)c2C(=O)C2=C(O)[C@]3(O)C(=O)C(C(N)=O)=C(O)[C@@H](N(C)C)[C@@H]3[C@@H](O)[C@@H]21 | checkerboard broth microdilution | clinical isolate 8-97 | added: magainin II | FIC index | 1.5 |
| COCCSc1nnc(C23CC4CC(CC(C4)C2)C3)n1-c1ccccc1 |  | IFO 3448 | 200 µg/disc, 24 h, 37 °C | inhibition zone diameter | < 10 mm |
| CCN1CCN(C(=O)N[C@@H](C(=O)N[C@@H]2C(=O)N3[C@@H]2SC(C)(C)[C@@H]3C(=O)O)c2ccccc2)C(=O)C1=O | checkerboard | ATCC 27853 | added: magainin II | FIC index | 0.25 |
| CCC(=O)O[C@H]1[C@H](C)O[C@@H](O[C@H]2[C@H](N(C)C)[C@@H](O)[C@H](O[C@H]3[C@@H](CC=O)C[C@@H](C)[C@@H](O)/C=C/C=C/C[C@@H](C)OC(=O)C[C@@H](O)[C@@H]3OC)O[C@@H]2C)C[C@@]1(C)O |  | K799/61, DMSO-methanol | 50 µL of 2.0 mM, 24 h, 37 °C, 9 mm well | inhibition zone diameter | 21.5 mm |

For quick reference, copied from above:
| Substance | test | test system | setting | measurement | result |
| --- | --- | --- | --- | --- | --- |
| O=C(Nc1ccccc1)c1cccc(Cl)c1 | microbial growth, broth dilution | ATCC27853 |  | MIC | > 64 µg/mL |
| CC[C@H](C)[C@H](NC(=O)CNC(=O)[C@H](CCC(=O)O)NC(=O)[C@H](CO)NC(=O)[C@@H](NC(=O)[C@H](CCCNC(=N)N)NC(=O)[C@H](CCCCN)NC(=O)[C@H](CCCCN)NC(=O)[C@H](C)NC(=O)[C@H](CO)NC(=O)[C@H](CC(N)=O)NC(=O)[C@H](CCC(=O)O)NC(=O)[C@H](CC(C)C)NC(=O)[C@H](CCCCN)NC(=O)[C@H](CCCCN)NC(=O)[C@H](C)NC(=O)[C@@H](NC(=O)[C@H](CCCCN)NC(=O)[C@H](CO)NC(=O)[C@H](CC(C)C)NC(=O)[C@H](Cc1c[nH]c2ccccc12)NC(=O)[C@@H](N)CO)[C@@H](C)O)[C@@H](C)CC)C(=O)N[C@@H](C)C(=O)N[C@H](C(=O)N[C@@H](C)C(=O)N[C@H](C(=O)N[C@@H](CCC(N)=O)C(=O)NCC(=O)NCC(=O)N1CCC[C@H]1C(=O)N[C@@H](CCCNC(=N)N)C(=O)O)[C@@H](C)CC)[C@@H](C)CC | broth microdilution |  | 18 h, 10 clinical isolates | MIC range | 2 to 32 µg/mL (≈ 0.599 to 9.58 µM) |
